Measured values gathered from unrelated publications.
Each numbered part is a random draw from the data of one study; scales do not carry over between parts. “And” joins repeats or separate records; there may be more than shown.

Set 1 — method: RNA Bind-n-Seq; form: RNA; medium: in vitro; concentration: not given; notes: RNA with constant flanks, ends assumed; relative to: input RNA pool; reading: higher = stronger binding
Target: RING finger protein unkempt homolog, zinc fingers 1-6, GST-SBP tag (UNK, Homo sapiens, UniProt Q9C0B0, residues 30-357)
Target sequence (chain): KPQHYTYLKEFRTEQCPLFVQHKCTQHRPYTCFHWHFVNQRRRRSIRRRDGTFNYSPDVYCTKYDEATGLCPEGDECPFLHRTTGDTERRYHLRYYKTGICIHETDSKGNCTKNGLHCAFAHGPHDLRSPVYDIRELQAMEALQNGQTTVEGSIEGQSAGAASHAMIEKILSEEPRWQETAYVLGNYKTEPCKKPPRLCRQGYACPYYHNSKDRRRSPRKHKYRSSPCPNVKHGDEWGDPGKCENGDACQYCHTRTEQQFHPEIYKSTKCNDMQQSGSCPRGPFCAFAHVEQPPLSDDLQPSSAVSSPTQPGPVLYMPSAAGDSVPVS
The bound/input enrichment of `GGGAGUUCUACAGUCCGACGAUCAUCAUGGCUACAAACAGACCAGAUACACUGGAUCCUGCUUUGCUGCGCCCAGGAAGAUCCGACCGAAAAAUACAUAUCGAUUUACCAAAUGAACAAGCAAGAUUAGAUAUAUUGAAAAUCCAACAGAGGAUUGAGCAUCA` is reported as 3.74 ratio.
`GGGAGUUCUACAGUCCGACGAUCUGGCAAGGGUUGUGCAAAUCCACUUGGGGUCACUGUUCCAUAUACAAUAAGAACCCACCUUCCGGAUUUUCUUUUAGAAAAUUGUAUAUGCAGCUGGAUGAAGGCAGCCUCACCUUUAAUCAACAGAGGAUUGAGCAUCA` has a bound/input enrichment of 0.414 ratio.
For `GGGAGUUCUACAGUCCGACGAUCAUAAUGAAUAUUAAAUGAUUUUUCUUCAGUCACAGUGAGAGCAUCUUGCUUUGUGGUUGAAACCGGCCGUGUAUGUCAGUCUUUGCUUUAGGCUGUUUCUCAUCUAAGUGUUUGAAUUAACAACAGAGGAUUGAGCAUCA`, the bound/input enrichment was 0.327 ratio.
`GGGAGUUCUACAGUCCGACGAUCGAAGAAGGGCUGAAGACAGCUGAUCCCCAUGACUGCUCUGCUUAUACUGGCUGGACAGGCACCGCCCUUUUGUACCUGCAGUUGUACCGGGUCACAUGUGACCAAACCUACCUGCUCCGACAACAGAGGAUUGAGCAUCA` has a bound/input enrichment of 0.0696 ratio.
The bound/input enrichment of `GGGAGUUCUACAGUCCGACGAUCCAGGAAUGCGGGGAGGCCUUUGCUCGUAGGUCUGAGCUCAUUGAGCACCAGAAGAUUCAUGACCGAGAAAGACCUUCUGGAAGCCGACAUUAUGAGCGCUCUGUCAUCCGCAGCCUUGCGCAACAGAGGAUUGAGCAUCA` is reported as 0.129 ratio.
With `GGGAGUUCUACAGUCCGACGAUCUCAUUGUACUGCAAAAAUCAUCCUCGUUUUAAAUUAGCCACAGUGAUAACUAGUCUGCACCCGCCGAAUCAUUUACCUUUUAAAUUAUCUGCUUUGUCUGAUACCUGAAACACAUCAAAACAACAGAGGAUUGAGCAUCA` the bound/input enrichment was 4.04 ratio.
With `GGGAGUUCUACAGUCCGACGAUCGCUGCUUUCCACAGUUUGGUGGGGCUGGCAGCAGUUCUUACCUGCAUGGCCGAGUACAUCGCCGAGUAUCCACAUUUUGCAAUGGAUGCCACGUCAAAUUUCACCAAGAUUGUGGCUUACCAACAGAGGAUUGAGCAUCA` the bound/input enrichment was 0.142 ratio.
For `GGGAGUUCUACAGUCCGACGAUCCAAGAUCACCUGUCUCCUGAAGCAGAAGAAAUCACUAUGAUUAGUAUUCAGCUUGCUGCCCGGUUCCUUUUUACUACAGGAUUUCACACAAAGAAAAUAGUCCGAGGAUCUGCCAGUGAUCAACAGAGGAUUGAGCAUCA`, the bound/input enrichment was 0.265 ratio.

Set 2 — method: protein binding microarray; form: double-stranded DNA, one strand shown; medium: in vitro; concentration: not given; relative to: not given; reading: higher = stronger binding
Target: Histone acetyltransferase KAT6A, winged helix 2, GST fusion (KAT6A, Homo sapiens, UniProt Q92794, residues 85-181)
Notes: 8-mer, flanks averaged, mean of 2 arrays, mostly near background
Residues (chain): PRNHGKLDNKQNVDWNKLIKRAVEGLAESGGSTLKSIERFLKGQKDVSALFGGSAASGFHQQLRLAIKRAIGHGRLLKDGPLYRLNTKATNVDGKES
The E-score of `AGAAACGA` is reported as 0.0621.
For `AAAATCGA`, the E-score was 0.0771.
The E-score of `GACGATCC` is reported as 0.0182.
For `AATGTGTG`, the E-score was -0.138.
The E-score of `GTGAGCCA` is reported as -0.13.
For `ACTTATAT`, the E-score was 0.0521.
For `ACCAACTG`, the E-score was -0.115.
For `ATCATGGG`, the E-score was 0.00851.

Mixed results
With `CC(=O)C1=C(C)N(c2cccc(C(F)(F)F)c2)C(=O)N[C@H]1c1ccc(C#N)nc1` the viability was 109% and 97% (normal organoid sample F; CellTiter-Glo; human, normal-adjacent epithelium; 1 µM; relative to: DMSO).
For `KRT20 (Homo sapiens, UniProt P35900)`, cross-linked residues read “K380 to K150” (KRT74 (Homo sapiens, UniProt Q7RTS7); cross-linking MS; cells; added: BSPNO).

Excerpt of the above (set 2):
For `AAAATCGA`, the E-score was 0.0771.
